Published values gathered from unrelated publications.
Lines come from different studies, so protocols differ. Several values in a cell are separate wells, animals, samples, runs or records. ± gives the spread as reported.

Cc1ccccc1/N=N/c1ccc(/N=N/c2c(O)ccc3ccccc23)c(C)c1  measured concentration (extracted rat blood QC samples; 0.5 µg/L, 8 h, room temperature, short-term stability): 0.499 µg/L
CC1C(c2c(F)ccc(F)c2F)CC(N[14C](=O)c2cnc3c(c2)CC2(C3)C(=O)Nc3ncccc32)C(=O)N1CC(F)(F)F (stereo not shown)  fecal excretion (refers to: total radioactivity; human, feces; through last collection; reference: dose): 80.6% and ~81% and 81%
CC1=C(C=O)C(C)(C)CC=C1  time plasma level detectable (BALB/c mice; oral, 100 mg/kg): ≤ 2 h
C[C@]12CC[C@@H]3c4ccc(OCC(=O)N[C@@H](CCCCNC(=O)CN5CCN(CC(=O)[O-])CCN(CC(=O)[O-])CCN(CC(=O)[O-])CC5)C(=O)O)cc4CC[C@H]3[C@@H]1CCC2=O.[68Ga+3]  radioactivity uptake (female nude mice, MCF7 xenograft, blood; dose not given, 2.5 h post-injection): 0.3 %ID/g
CC(C)c1ccc(C(=O)Nc2ccc(CN)cc2)c(O)c1  t1/2 (rat liver microsomes; 1 µM, together with: NADPH): 22 min
C[C@H](CN(C)Cc1ccccc1)NC(=O)c1ccc(-c2noc(C(F)(F)[18F])n2)cc1  hippocampus-to-cerebellum ratio (PET; Sprague-Dawley rat, female, hippocampus and cerebellum; intravenous, 30 min; reference: hippocampus SUV over cerebellum SUV): 1.76 ± 0.26
N=C(N)NCCC[C@@H]1NC(=O)[C@H](CCCCNC(=O)CC[C@H](NC(=O)CC[C@H](NC(=O)CN2CCN(CC(=O)O)CCN(CC(=O)O)CCN(CC(=O)O)CC2)C(=O)N[C@@H](CCC(=O)NCCCC[C@@H]2NC(=O)[C@@H](Cc3ccccc3)NC(=O)[C@H](CC(=O)O)NC(=O)CNC(=O)[C@H](CCCNC(=N)N)NC2=O)C(=O)NCCCC[C@@H]2NC(=O)[C@@H](Cc3ccccc3)NC(=O)[C@H](CC(=O)O)NC(=O)CNC(=O)[C@H](CCCNC(=N)N)NC2=O)C(=O)NCCCC[C@@H]2NC(=O)[C@@H](Cc3ccccc3)NC(=O)[C@H](CC(=O)O)NC(=O)CNC(=O)[C@H](CCCNC(=N)N)NC2=O)NC(=O)[C@@H](Cc2ccccc2)NC(=O)[C@H](CC(=O)O)NC(=O)CNC1=O [gallium-68 labelled]  radioactivity concentration (female BALB/c nude mice, SK-RC-52 xenograft, tumour; 0.5 µg, 2 h post injection, together with: excess unlabelled DOTA-E-[c(RGDfK)]2 50 µg): decreased
C#Cc1cccc(Nc2ncnc3cc(OC)c(OCCCN4CCOCC4)cc23)c1  half-life (metabolic stability; dog, liver microsomes; 1 µM, pH 7.4): 33.2 min
Cc1ccc(OCC(=O)O)cc1  t1/2 (Sprague-Dawley rat, male, plasma; oral, 30 mg/kg/day of parent drug, day 1, 90-day repeated dosing): 136 min
CC(C)[C@H](NC(=O)[C@@H]1CCCN1C(=O)[C@H](CCCNC(=N)N)NC(=O)[C@H](CS)NC(=O)[C@H](Cc1c[nH]c2ccccc12)NC(=O)[C@H](CCCNC(=N)N)NC(=O)[C@@H](Cc1ccccc1)NC(=O)[C@H](Cc1c[nH]cn1)NC(=O)[C@H](CCC(=O)O)NC(=O)[C@H](CS)NC(=O)[C@H](CS)NC(=O)[C@@H]1CC(=O)N[C@@H](CCCNC(=N)N)C(=O)NCC(=O)N[C@@H](CC(=O)O)C(=O)N[C@H](Cc2ccc(O)cc2)C(=O)N1)C(N)=O [technetium-99m labelled]  tissue uptake (C57 mouse, female, B16/F1 melanoma, bone; intravenous, 0.037 MBq, 4 h): 0.59 ± 0.18 %ID/g
Cn1cncn1.[Ru+2].c1cc(-c2ccc3ccccc3n2)nc(-c2ccc3ccccc3n2)c1.c1ccc2cc3nc4c5cccnc5c5ncccc5c4nc3cc2c1  ligand exchange quantum yield (acetonitrile; concentration not given, irradiation 500 nm): 0.025
CCCC[C@H](NC(=O)CNC(=O)CNC(=O)CN1CCN(CC(=O)O)CCN(CC(=O)O)CC1)C(=O)N[C@H]1CC(=O)NCCCC[C@@H](C(N)=O)NC(=O)[C@H](Cc2c[nH]c3ccccc23)NC(=O)[C@H](CCCNC(=N)N)NC(=O)[C@@H](Cc2ccccc2)NC(=O)[C@H](Cc2c[nH]cn2)NC1=O [gallium-67 labelled]  tumour to tissue ratio (female C57 mice, B16/F1 melanoma; intravenous, 0.037 MBq, 0.5 h; reference: tumour over liver): 16.1
CCCC[C@H](NC(=O)CNC(=O)CNC(=O)CN1CCN(CC(=O)O)CCN(CC(=O)O)CC1)C(=O)N[C@H]1CC(=O)NCCCC[C@@H](C(N)=O)NC(=O)[C@H](Cc2c[nH]c3ccccc23)NC(=O)[C@H](CCCNC(=N)N)NC(=O)[C@@H](Cc2ccccc2)NC(=O)[C@H](Cc2c[nH]cn2)NC1=O [copper-64 labelled]  uptake ratio (female C57 mouse, B16/F1 melanoma; intravenous, 0.037 MBq, 24 h; reference: tumour over muscle): 106
Cn1c(=O)oc2ccc(-c3ccc(CC(C#N)NC(=O)C4CNCCCO4)c(F)c3)cc21 (stereo not shown)  bilirubin increased incidence (human; oral, 40 mg once daily, treatment-related AE, multiple ascending dose): 11.1%
CC(C)(Sc1ccncc1-c1ccc(C#N)c2ccccc12)C(=O)OC1OC(C(=O)O)C(O)C(O)C1O (stereo not shown)  terminal half-life (plasma; oral, 15 mg, severe renal impairment, fasted): 1270 min
Cc1cc(N2CCC(C#N)(C3(C)CC3)C2=O)cc(C(=O)NCc2cc(F)cc(-c3cnn(C)c3)c2)n1 (racemic)  unchanged compound in urine (male Sprague Dawley rats, urine; dose not given): not detected
COc1cc(OC)cc(C2=C3C(C)=C(I)C(C)=[N+]3[B-](F)(F)n3c(C)c(I)c(C)c32)c1  log molar absorptivity (DMSO): 3.55 M⁻¹ cm⁻¹
COc1cc(NC(C)=O)c2c(c1O)-c1c(OC)c(OC)cc3c1C(C2)N(C)CC3 (stereo not shown)  remaining compound (rat heart homogenate; 50 µg/mL, 24 h, room temperature, post-preparative storage): 91.5 ± 2.4%
CCC1CNC(CC)CN(C(C(=O)[O-])c2ccc(C(=O)[O-])cc2)C(CC)CN(CC(=O)[O-])C(CC)CN1.[Mn+2] (stereo not shown)  Mn content (ICP-MS; BALB/c mice, liver; intravenous, 0.05 mmol/kg, 5 min): 5.03 µg/g
Cc1cc2c(cc1C1(c3ncc(C(=O)O)cn3)CC1)C(C)(C)CCC2(C)C  HDL level (Sprague-Dawley rat, male, plasma; oral, 100 mg/kg, 3 h, sesame oil vehicle): 59 ± 4.2 mg/dL
N#Cc1nc(N2CCOCC2)nc(N(Cc2ccc(F)cc2)CC2CCCNC2)n1 (stereo not shown)  AUC brain (CD-1 mouse female, brain; intraperitoneal, 10 mg/kg): 152 ng·h/g
OCc1cn(Cc2ccc(-c3noc(-c4ccc(OCC[18F])c(C(F)(F)F)c4)n3)cc2)nn1  tracer uptake (rat, pancreas; intravenous, 5 min): 1.96 %ID/g
O=C([O-])CN1CCN(CC(=O)[O-])CCN(CC(=O)NCC2CCC(C(=O)NC(Cc3ccc4ccccc4c3)C(=O)NCCCCC(NC(=O)NC(CCC(=O)O)C(=O)O)C(=O)O)CC2)CCN(CC(=O)[O-])CC1.[44Sc+3] (stereo not shown)  intact complex (transchelation stability; 1 h, 37 °C, together with: DTPA 10 mM): 97.7 ± 0.5%
NCCCC[C@H](NC(=O)[C@@H]1CCCN1C(=O)[C@@H]1CSSC[C@H](NC(=O)CNC(=O)CNC(=O)CN)C(=O)N[C@@H](Cc2ccc(O)cc2)C(=O)N[C@@H](Cc2ccccc2)C(=O)N[C@@H](CCC(N)=O)C(=O)N[C@@H](CC(N)=O)C(=O)N1)C(=O)NCC(N)=O  NOEL (male Sprague Dawley rats; iv, dose not given, single dose): 5 µg/kg
CCS(=O)(=O)c1ccccc1C(=O)N1CCN(c2nc3ccc(F)cc3s2)C[C@@H]1C  AUC (mouse, brain; intravenous, 3 mg/kg): 404 ± 109 ng·h/mL
Cc1ccc(-c2ccc(-c3cc4sccc4o3)cn2)nc1  fluorescence lifetime (TCSPC; benzene): 0.85 ns
CCCC[C@@H]1NC(=O)[C@@H](NC(=O)[C@H](CCC(=O)O)NC(=O)CNC(=O)CN2CCN(CC(=O)O)CCN(CC(=O)O)CCN(CC(=O)O)CC2)CCCCNC(=O)C[C@@H](C(N)=O)NC(=O)[C@H](C(C)C)NC(=O)[C@@H]2CCCN2C(=O)[C@H](CCCNC(=N)N)NC(=O)CNC(=O)[C@H](Cc2c[nH]c3ccccc23)NC(=O)[C@H](CCCNC(=N)N)NC(=O)[C@@H](Cc2ccccc2)NC(=O)[C@H](Cc2c[nH]cn2)NC(=O)[C@H](CCC(=O)O)NC1=O [gallium-67 labelled]  intestine uptake (C57 mice, B16/F1 flank melanoma, intestine; intravenous, 0.037 MBq/mouse, 0.5 h): 2.76 ± 1.34 %ID
CC12N3Cc4c(c(OCCCS(=O)(=O)[O-])c5ccccc5c4OCCCS(=O)(=O)[O-])CN1C(=O)N1CN4C(=O)N5Cc6c(c(OCCCS(=O)(=O)[O-])c7ccccc7c6OCCCS(=O)(=O)[O-])CN6C(=O)N(CN(C3=O)C12C)C4(C)C65C.[Na+].[Na+].[Na+].[Na+] (stereo not shown)  phase solubility slope (pD 7.4, together with: camptothecin): 0.087 ± 0.0012
CC(=O)N[C@H](CCNC(=O)c1cc(NC(=O)c2cc(NC(=O)c3cc(NC(=O)c4nccn4C)cn3C)cn2C)cn1C)C(=O)Nc1cn(C)c(C(=O)Nc2cc(C(=O)Nc3cc(C(=O)Nc4cc(C(=O)NCCCN(C)CCCN[14C](=O)c5cccc([14C](=O)O)c5)n(C)c4)n(C)c3)n(C)c2)n1  liver concentration (male NSG mouse, tumour-free; intraperitoneal, 20 nmol per animal, 24 h): 0.57 mg/kg
C=CC(=O)Nc1cc(Nc2nccc(-c3cn(C4CC4)c4ccccc34)n2)c(OC)cc1N(C)CCNC  plasma concentration (radiolabelled metabolite profiling; human male, plasma; oral, 110 mg, 6 h): 30.4 ng/g
COc1cc2c(cc1OC)CN(CCCCn1ccc3cc(OCC[18F])ccc31)C2  blood uptake (male ICR mice; intravenous, 60 min post-injection): 1.46 ± 0.12 %ID/g
NC[C@@H](C(=O)Nc1ccc(-c2cn[nH]c2)cc1)c1ccccc1  ocular irritation score (OECD 405, refers to: Cornea; New Zealand White rabbit; topical, 0.1 %, 72 h, day 4; direction not given): 0
CN(C)c1ccc2c(-c3cc(C(=O)N4CCN(CCCOc5ccc6nccc(C(=O)NCC(=O)N7CC(F)(F)C[C@H]7C#N)c6c5)CC4)ccc3C(=O)[O-])c3ccc(=[N+](C)C)cc-3oc2c1  half-life slow phase (intravital imaging; mouse, blood; intravenous, 100 µg): 10.1 min
COc1ccc(NC(=O)[C@H](CCCCN)NC(=O)c2cc(NC(=O)[C@H](CCCCN)NC(=O)c3cc(NC(=O)[C@H](CCCCN)NC(=O)c4cc(N)ccc4OC)ccc3OC)ccc2OC)cc1C(N)=O  enthalpy of dissociation (ITC heats of dilution; TBS; pH 7.4, 25 °C, hexamer to monomer): 15.7 kcal/mol

Some of these lines once more:
CC(C)c1ccc(C(=O)Nc2ccc(CN)cc2)c(O)c1  t1/2 (rat liver microsomes; 1 µM, together with: NADPH): 22 min
COc1ccc(NC(=O)[C@H](CCCCN)NC(=O)c2cc(NC(=O)[C@H](CCCCN)NC(=O)c3cc(NC(=O)[C@H](CCCCN)NC(=O)c4cc(N)ccc4OC)ccc3OC)ccc2OC)cc1C(N)=O  enthalpy of dissociation (ITC heats of dilution; TBS; pH 7.4, 25 °C, hexamer to monomer): 15.7 kcal/mol
CCS(=O)(=O)c1ccccc1C(=O)N1CCN(c2nc3ccc(F)cc3s2)C[C@@H]1C  AUC (mouse, brain; intravenous, 3 mg/kg): 404 ± 109 ng·h/mL
C[C@H](CN(C)Cc1ccccc1)NC(=O)c1ccc(-c2noc(C(F)(F)[18F])n2)cc1  hippocampus-to-cerebellum ratio (PET; Sprague-Dawley rat, female, hippocampus and cerebellum; intravenous, 30 min; reference: hippocampus SUV over cerebellum SUV): 1.76 ± 0.26
